Experimental data from different studies.
Compare with care: the assays were run in different laboratories. Several values in a cell are separate wells, animals, samples, runs or records. ± gives the spread as reported.
TTBK2: Tau-tubulin kinase 2 (TTBK2, Homo sapiens, UniProt Q6IQ55)
UniProt Q6IQ55, sequence (whole entry, looked up): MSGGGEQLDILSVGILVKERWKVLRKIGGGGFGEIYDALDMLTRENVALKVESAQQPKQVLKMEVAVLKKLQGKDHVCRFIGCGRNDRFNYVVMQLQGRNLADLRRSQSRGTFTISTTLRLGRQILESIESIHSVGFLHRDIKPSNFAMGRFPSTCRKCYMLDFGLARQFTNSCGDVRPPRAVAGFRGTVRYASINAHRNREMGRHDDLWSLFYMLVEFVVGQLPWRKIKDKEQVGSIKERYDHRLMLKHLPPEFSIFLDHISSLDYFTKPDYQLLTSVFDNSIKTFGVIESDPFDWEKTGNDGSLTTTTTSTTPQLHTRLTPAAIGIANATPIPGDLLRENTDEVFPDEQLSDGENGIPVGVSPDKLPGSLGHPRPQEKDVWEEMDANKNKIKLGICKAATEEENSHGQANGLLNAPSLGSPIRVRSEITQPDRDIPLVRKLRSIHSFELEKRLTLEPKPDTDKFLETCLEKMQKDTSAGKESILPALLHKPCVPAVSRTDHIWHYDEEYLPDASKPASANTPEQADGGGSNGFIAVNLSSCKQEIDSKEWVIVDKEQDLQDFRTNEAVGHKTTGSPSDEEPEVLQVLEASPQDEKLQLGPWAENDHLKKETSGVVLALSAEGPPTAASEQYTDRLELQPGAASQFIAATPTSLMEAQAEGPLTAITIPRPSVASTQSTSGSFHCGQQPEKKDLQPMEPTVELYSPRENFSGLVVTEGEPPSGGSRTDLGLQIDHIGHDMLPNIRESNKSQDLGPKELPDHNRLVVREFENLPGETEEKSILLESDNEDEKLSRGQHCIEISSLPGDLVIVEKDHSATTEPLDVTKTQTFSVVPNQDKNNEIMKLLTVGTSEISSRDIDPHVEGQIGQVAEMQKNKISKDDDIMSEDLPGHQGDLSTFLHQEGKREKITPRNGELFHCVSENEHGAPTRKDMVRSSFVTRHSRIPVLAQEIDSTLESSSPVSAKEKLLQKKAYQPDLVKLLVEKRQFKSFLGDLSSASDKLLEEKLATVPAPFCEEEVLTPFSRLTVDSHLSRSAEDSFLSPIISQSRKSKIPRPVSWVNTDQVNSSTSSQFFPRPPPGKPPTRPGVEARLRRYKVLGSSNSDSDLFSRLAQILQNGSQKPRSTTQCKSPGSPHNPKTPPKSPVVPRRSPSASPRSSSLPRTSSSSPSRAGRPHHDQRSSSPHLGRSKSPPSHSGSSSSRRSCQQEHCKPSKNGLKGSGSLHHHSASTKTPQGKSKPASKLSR
Uridine nucleoside ribohydrolase: Uridine nucleoside ribohydrolase (Trichomonas vaginalis, UniProt A2FTT0)
NPY2R: Neuropeptide Y receptor type 2 (NPY2R, Homo sapiens, UniProt P49146)
UniProt P49146, sequence (whole entry, looked up): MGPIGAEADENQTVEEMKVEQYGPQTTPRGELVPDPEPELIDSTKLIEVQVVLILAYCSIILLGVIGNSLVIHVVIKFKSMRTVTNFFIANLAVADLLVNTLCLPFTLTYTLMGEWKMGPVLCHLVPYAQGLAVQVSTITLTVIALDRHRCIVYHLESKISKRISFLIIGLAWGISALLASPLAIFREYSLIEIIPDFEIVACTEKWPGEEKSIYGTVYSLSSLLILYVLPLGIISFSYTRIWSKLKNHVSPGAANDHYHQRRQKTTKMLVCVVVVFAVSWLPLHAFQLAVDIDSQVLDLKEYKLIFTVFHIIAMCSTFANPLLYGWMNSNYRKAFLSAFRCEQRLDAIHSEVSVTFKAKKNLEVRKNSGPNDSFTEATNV
HTR2A: 5-hydroxytryptamine receptor 2A (HTR2A, Homo sapiens, UniProt P28223)
UniProt P28223, sequence (whole entry, looked up): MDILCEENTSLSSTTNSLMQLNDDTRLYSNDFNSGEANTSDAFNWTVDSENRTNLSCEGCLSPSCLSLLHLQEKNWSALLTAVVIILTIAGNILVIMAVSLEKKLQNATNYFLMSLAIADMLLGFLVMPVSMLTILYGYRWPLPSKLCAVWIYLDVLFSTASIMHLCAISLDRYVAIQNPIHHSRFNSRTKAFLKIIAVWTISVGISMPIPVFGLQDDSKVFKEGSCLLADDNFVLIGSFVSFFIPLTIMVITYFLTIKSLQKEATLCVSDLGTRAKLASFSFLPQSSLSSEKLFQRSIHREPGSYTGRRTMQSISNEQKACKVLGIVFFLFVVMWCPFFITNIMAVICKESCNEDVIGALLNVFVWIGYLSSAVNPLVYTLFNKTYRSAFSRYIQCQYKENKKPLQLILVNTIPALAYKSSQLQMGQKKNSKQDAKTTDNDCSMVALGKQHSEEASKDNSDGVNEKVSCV
SPHK2: Sphingosine kinase 2 (SPHK2, Homo sapiens, UniProt Q9NRA0)
UniProt Q9NRA0, sequence (whole entry, looked up): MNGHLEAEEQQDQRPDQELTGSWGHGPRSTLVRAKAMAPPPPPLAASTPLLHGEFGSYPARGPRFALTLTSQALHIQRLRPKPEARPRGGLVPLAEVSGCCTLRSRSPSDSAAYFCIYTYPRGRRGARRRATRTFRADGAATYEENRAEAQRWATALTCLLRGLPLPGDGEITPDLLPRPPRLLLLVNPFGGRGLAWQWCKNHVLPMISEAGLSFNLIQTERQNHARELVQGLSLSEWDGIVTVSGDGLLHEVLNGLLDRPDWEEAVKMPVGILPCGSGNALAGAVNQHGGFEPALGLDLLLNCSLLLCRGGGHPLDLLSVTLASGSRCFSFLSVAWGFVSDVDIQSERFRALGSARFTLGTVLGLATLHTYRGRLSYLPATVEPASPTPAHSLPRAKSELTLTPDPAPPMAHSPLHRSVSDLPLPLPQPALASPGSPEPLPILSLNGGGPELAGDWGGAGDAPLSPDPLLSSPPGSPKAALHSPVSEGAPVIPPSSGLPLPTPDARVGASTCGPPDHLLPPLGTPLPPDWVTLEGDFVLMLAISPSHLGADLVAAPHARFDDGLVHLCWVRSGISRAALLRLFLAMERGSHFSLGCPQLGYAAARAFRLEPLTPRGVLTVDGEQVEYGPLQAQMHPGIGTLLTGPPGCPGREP
TNKS2: Poly [ADP-ribose] polymerase tankyrase-2 (TNKS2, Homo sapiens, UniProt Q9H2K2)
UniProt Q9H2K2, sequence (whole entry, looked up): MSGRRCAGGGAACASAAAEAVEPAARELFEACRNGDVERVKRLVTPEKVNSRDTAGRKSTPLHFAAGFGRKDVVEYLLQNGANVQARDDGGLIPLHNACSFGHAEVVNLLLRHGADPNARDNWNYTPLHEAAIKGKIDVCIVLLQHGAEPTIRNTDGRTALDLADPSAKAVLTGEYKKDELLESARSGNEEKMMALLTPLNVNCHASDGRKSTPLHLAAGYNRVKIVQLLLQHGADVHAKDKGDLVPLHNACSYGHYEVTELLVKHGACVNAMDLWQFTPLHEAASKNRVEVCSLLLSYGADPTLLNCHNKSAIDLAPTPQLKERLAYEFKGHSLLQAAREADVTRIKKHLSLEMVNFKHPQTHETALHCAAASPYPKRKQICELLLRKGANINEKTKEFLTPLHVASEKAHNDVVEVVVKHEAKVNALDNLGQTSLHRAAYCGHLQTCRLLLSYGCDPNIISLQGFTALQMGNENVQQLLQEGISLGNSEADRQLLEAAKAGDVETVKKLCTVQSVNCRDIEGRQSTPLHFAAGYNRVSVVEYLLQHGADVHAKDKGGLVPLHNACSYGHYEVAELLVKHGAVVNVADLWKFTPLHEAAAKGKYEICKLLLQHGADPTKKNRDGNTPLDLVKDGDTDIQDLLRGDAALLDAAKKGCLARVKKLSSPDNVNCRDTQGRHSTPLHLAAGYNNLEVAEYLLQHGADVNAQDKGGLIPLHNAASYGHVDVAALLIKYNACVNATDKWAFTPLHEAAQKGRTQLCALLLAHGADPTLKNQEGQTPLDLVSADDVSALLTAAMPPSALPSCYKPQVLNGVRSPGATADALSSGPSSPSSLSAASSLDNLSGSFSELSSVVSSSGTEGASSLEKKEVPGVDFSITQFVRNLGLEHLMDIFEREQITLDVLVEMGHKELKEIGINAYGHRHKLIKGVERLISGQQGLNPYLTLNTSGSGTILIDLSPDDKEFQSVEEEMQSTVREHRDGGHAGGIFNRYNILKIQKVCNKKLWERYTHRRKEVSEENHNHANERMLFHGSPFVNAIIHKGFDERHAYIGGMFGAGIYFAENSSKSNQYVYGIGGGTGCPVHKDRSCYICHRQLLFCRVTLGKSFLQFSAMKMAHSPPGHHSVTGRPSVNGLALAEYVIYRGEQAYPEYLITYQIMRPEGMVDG
MMP2: 72 kDa type IV collagenase (MMP2, Homo sapiens, UniProt P08253)
UniProt P08253, sequence (whole entry, looked up): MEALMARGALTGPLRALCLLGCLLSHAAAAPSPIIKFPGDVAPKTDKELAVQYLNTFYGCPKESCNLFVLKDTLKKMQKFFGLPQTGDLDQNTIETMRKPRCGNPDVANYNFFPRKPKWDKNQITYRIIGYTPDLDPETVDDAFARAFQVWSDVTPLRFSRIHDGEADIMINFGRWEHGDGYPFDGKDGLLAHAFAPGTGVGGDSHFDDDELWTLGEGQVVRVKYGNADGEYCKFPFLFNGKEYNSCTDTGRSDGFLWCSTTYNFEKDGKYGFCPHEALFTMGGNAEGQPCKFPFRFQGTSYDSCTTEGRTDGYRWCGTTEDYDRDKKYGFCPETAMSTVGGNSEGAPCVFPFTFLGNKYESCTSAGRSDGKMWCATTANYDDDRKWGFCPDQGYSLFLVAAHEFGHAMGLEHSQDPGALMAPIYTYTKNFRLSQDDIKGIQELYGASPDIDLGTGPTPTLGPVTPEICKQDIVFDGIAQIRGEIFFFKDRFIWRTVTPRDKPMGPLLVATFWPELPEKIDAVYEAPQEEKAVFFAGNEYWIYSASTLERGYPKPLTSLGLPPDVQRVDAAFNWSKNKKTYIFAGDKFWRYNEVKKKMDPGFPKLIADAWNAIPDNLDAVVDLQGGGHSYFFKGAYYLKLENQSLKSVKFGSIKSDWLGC
Alpha-amylase: Alpha-amylase (Bos taurus, UniProt Q3MHH8)
UniProt P30872, sequence (whole entry, looked up): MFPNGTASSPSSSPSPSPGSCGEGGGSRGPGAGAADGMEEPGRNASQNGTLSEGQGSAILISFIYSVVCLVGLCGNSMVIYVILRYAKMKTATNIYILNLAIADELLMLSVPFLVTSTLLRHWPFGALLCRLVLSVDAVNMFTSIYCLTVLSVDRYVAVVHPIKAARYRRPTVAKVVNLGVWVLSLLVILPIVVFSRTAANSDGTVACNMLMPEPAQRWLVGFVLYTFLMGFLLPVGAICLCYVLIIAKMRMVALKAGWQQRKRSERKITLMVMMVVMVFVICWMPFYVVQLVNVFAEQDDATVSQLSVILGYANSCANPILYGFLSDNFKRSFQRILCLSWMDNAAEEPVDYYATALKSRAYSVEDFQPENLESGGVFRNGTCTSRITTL

Structure (SMILES) | tested on | assay | system | setting | scale | endpoint | value
CCn1cc(C(=O)O)c(=O)c2c(N)c(F)c(NC3CCCCC3)cc21 | TTBK2 | kinase activity |  | 0.1 µM, together with: ATP at Km |  | inhibition | 12.6%
CN1CCN(CC(=O)c2ccccc2)C1=O | Uridine nucleoside ribohydrolase | 19F NMR |  | 50 µM |  | inhibition | 44.5%
Cn1ccc2cc(-n3c(=O)[nH]c4sc5c(c4c3=O)CCCC5)ccc21 | NPY2R | cell-free assay |  | 10 µM |  | inhibition | -8%
Brc1ccccc1-c1nnc(CSc2nnnn2-c2ccccc2)o1 | HTR2A | ligand displacement, radioligand |  | 10 µM |  | inhibition | 5%
CCc1c(-c2ccc3[nH]ncc3c2)cnc(N)c1-c1ccc(O)cc1 | Ubiquitin carboxyl-terminal hydrolase 7 (USP7, Homo sapiens, UniProt Q93009) | enzyme activity, inhibitor |  | 50 µM |  | inhibition | 105% and 89.1%
O=C(CN1CCO[C@@H](COc2cccc(Cl)c2)C1)N1CCc2ccccc21 | HTR2A | radioligand binding |  | concentration not given, together with: [3H]ketanserin |  | inhibition | 62.8%
Cc1[nH]nc2c1N=C(c1ccccc1Cl)c1cnc(N3CCOCC3)cc1N2 | NPY2R | cell-free assay |  | 10 µM |  | inhibition | 5%
Cc1cccc(C)c1CNc1cc(C(=O)N2CCC2)cn2c(C)c(C)nc12 | Na+/K+-ATPase (pig) | enzyme activity | cerebral cortex | 10 µM |  | inhibition | 4.2%
CC(C)(C)c1ccccc1OS(=O)(=O)Oc1cccc(C(=O)NO)c1 | Histone deacetylase 9 (HDAC9, Homo sapiens, UniProt Q9UKV0) | enzyme activity, inhibitor, fluorescence |  | 10 µM |  | inhibition | 15%
Cc1ccnc(OC[C@H]2CN(CCN3CCc4ccccc43)CCO2)c1 | HTR2A | radioligand binding |  | concentration not given, together with: [3H]ketanserin |  | inhibition | 41.9%
O=C1c2sc(-c3ccc(N4CCC(F)C4)nc3F)nc2CCN1c1cccnc1 (stereo not drawn) | HTR2A | ligand displacement, radioligand |  | 1 µM |  | inhibition | -6%
CCc1ccc(N2CCC(O)C2)cc1 (stereo not drawn) | Uridine nucleoside ribohydrolase | 19F NMR |  | 100 µM |  | inhibition | 32.9%
CN(C)C/C=C/C(=O)Nc1ccc2nc(NCCCCCN(C)C)nc(NCCCCCCN(C)C)c2c1 | Histone-lysine N-methyltransferase PRDM9 (PRDM9, Homo sapiens, UniProt Q9NQV7) | enzyme activity, inhibitor, radiometric |  | 10 µM |  | inhibition | 61%
C=CC(=O)Nc1cccc(-c2cnc3[nH]cc(C(=O)NC(C)(C)C)c3n2)c1 | SPHK2 | enzyme activity, inhibitor |  | 0.1 µM |  | inhibition | 3%
COc1ccc(CN2CC3CCCCN3C2=O)cc1 (stereo not drawn) | Uridine nucleoside ribohydrolase | 19F NMR |  | 100 µM, together with: 0.01% Triton X-100 |  | inhibition | 100%
CN1CCc2c(sc3c2c(=O)n(-c2ccccc2)c2nnc(SCc4ccccc4)n32)C1 | Trypanosoma cruzi | reporter mRNA translation, inhibitor, refers to: Renilla luciferase mRNA | cell-free extract | concentration not given, test 1 | baseline: positive over negative control | translation activity | 110% and 106%
Cc1cccc(O[C@H]2CCC[C@@H](C(C)CNCc3ccncc3)C2)c1 (relative stereo) | SPHK2 | enzyme activity, inhibitor |  | 10 µM |  | inhibition | 0%
C[Si](C)(C)C[C@H](CN)CC(=O)O | NPY2R | ligand displacement, radioligand |  | 250 µM |  | inhibition | 3%
Cn1cc(-c2ccc(C(N)=O)cc2)cn1 | Uridine nucleoside ribohydrolase | 19F NMR |  | 100 µM |  | inhibition | 100%
NC(=O)C[C@H]1CCc2sc3ncnc(O[C@H]4CC[C@H](N5CCOCC5)CC4)c3c21 | Lymphokine-activated killer T-cell-originated protein kinase (PBK, Homo sapiens, UniProt Q96KB5) | enzyme activity, inhibitor |  | 10 µM |  | inhibition | 6%
O=C(NCc1cc(F)cc(F)c1)[C@@]1(O)CCN(c2ccc3[nH]ccc3c2)C1=O | Methionine aminopeptidase 1 (METAP1, Homo sapiens, UniProt P53582) | enzyme activity |  | 3e-09 and 100 µM |  | inhibition | no inhibition
CN1CC[C@@H](COc2cnc(C#N)cc2-c2ccn3nc(NC(=O)C4CC4)cc3c2)C1 | TTBK2 | enzyme activity, inhibitor |  | 1 µM |  | inhibition | -7%
Cc1cccnc1-c1ccc(C(N)=O)cc1 | Uridine nucleoside ribohydrolase | 19F NMR |  | 100 µM, together with: 0.01% Triton X-100 |  | inhibition | 100%

Structure (SMILES) | tested on | assay | system | setting | scale | endpoint | value
CCCCCCCCCCCCCCN(O)C(=O)CCCCC[C@@H]1NC(=O)[C@H]([C@@H](C)CC)NC(=O)[C@H](Cc2ccccc2C(F)(F)F)NC(=O)CCSCc2cccc(n2)CSCCCNC1=O | Protein deacetylase HDAC6 (HDAC6, Homo sapiens, UniProt Q9UBN7) | enzyme activity, inhibitor, fluorogenic |  | 30 µM |  | inhibition | 30%
COc1ccc2nc(C)ccc2c1Nc1sn(C)c(=O)c1C#N | TNKS2 | enzyme activity, inhibitor |  | 10 µM |  | inhibition | 1%
Cc1cc(C(=O)NCCNC(=O)c2cccc(COc3ccccc3C(N)=O)c2)n[nH]1 | TNKS2 | enzyme activity, inhibitor |  | 5 nM |  | inhibition | 82%
O=C(CNc1nc(NNC(=O)c2ccc(Nc3nc(Nc4ccc(C(=O)NNc5nc(NCC(=O)NO)nc(N6CCCCC6)n5)cc4)nc(Nc4ccc(C(=O)NNc5nc(NCC(=O)NO)nc(N6CCCCC6)n5)cc4)n3)cc2)nc(N2CCCCC2)n1)NO | MMP2 | enzyme activity, inhibitor, fluorescence |  | 1e-05 µg/mL |  | inhibition | 33%
C[C@H]1CN(C(=O)c2cn(-c3ccnc(N)n3)c3cc(C#CC4(O)CCCCC4)ccc23)CCN1 | Serine/threonine-protein kinase/endoribonuclease IRE2 (ERN2, Homo sapiens, UniProt Q76MJ5) | cell-free assay, TR-FRET |  | 1 µM |  | inhibition | 2%
CC(=O)Nc1ccccc1-c1ccc(O)cc1 | Uridine nucleoside ribohydrolase | 19F NMR |  | 50 µM, together with: 0.01% Triton X-100 |  | inhibition | 92.8%
CN1CCN(Cc2ccc(-c3ccc(CO[C@H]4CCC[C@@H]4NC(=O)c4cc(-c5cnn(C)c5)cnc4N)cc3)cc2)CC1 | SPHK2 | enzyme activity, inhibitor |  | 0.1 µM |  | inhibition | -3%
Cc1cccnc1-c1cccc(C#N)c1 | Uridine nucleoside ribohydrolase | 19F NMR |  | 100 µM, together with: 0.01% Triton X-100 |  | inhibition | 100%
C[Si]1(C[C@H](CN)CC(=O)O)CCCC1 | alpha1 adrenergic receptor, rat | binding, radioligand binding |  | 70 µM, together with: [3H]prazosin |  | inhibition | -4%
N=C(N)NCCCC(NC(=O)C(CC(=O)NO)Cc1ccc2ccccc2c1)C(=O)NC(Cc1c[nH]c2ccccc12)C(=O)NC(CCC(=O)O)C(N)=O (stereo not drawn) | Matrix metalloproteinase-20 (Homo sapiens, UniProt O60882) |  |  | 1 µM |  | inhibition | 2%
CC1=NN(c2ccccc2F)C(=O)/C1=N\Nc1ccc(S(N)(=O)=O)cc1 | Alpha-amylase | enzyme activity, inhibitor, glucose oxidase |  | 10 µg/mL, together with: dextrin |  | inhibition | 6.334 ± 0.000334%
CN(Cc1ccc(/C=C/C(=O)NO)cc1)CC12CC3CC(CC(C3)C1)C2 | human CB1 receptor | agonist radioligand binding |  | 0.05 µM |  | inhibition | 17%
CC1=NN(c2cccc(F)c2)C(=O)/C1=N\Nc1ccc(S(N)(=O)=O)cc1 | Alpha-amylase | enzyme activity, inhibitor, glucose oxidase |  | 500 µg/mL, together with: dextrin |  | inhibition | 20.9%
O=C1c2sc(-c3ccc(N4CCC(CO)CC4)nc3F)nc2CCN1c1cccnc1 | Somatostatin receptor type 1 (SSTR1, Homo sapiens, UniProt P30872) | ligand displacement, radioligand |  | 1 µM |  | inhibition | 7%
O=C(NCCCCc1ccccc1)n1c(=O)oc2cc(-c3ccc(F)cc3)ccc21 | MMP2 | enzyme activity, inhibitor |  | 10 µM |  | inhibition | 7.2%
O=C(CCCc1ccc2c(c1)OCCO2)NCCNC(=O)Cn1c(=O)[nH]c(=O)c2ccccc21 | TNKS2 | enzyme activity, inhibitor |  | 0.104 µM |  | inhibition | 75%
CCC(=O)N(C)c1ccc(Cl)c(Cl)c1 | NPY2R | ligand displacement, radioligand |  | 10 µM |  | inhibition | < 10%
O=C(CC1CC2CCC1C2)NCCNC(=O)Cn1c(=O)[nH]c(=O)c2ccccc21 (stereo not drawn) | TNKS2 | enzyme activity, inhibitor |  | 0.104 µM |  | inhibition | 99%
O=C(CNc1nc(Cl)nc(NNC(=O)c2ccc(Nc3nc(Nc4ccc(C(=O)NNc5nc(Cl)nc(NCC(=O)NO)n5)cc4)nc(Nc4ccc(C(=O)NNc5nc(Cl)nc(NCC(=O)NO)n5)cc4)n3)cc2)n1)NO | MMP2 | enzyme activity, inhibitor, fluorescence |  | 0.01 µg/mL |  | inhibition | 82%
C/C=C/C(=O)Nc1ccc2nc(NCCCCCN(C)C)nc(NCCCCCCN(C)C)c2c1 | N-lysine methyltransferase SMYD2 (SMYD2, Homo sapiens, UniProt Q9NRG4) | enzyme activity, inhibitor, radiometric |  | 10 µM |  | inhibition | 32%
CC(=O)Nc1ccc(F)cc1-c1ccncc1 | Uridine nucleoside ribohydrolase | 19F NMR |  | 100 µM |  | inhibition | 100%
CC(=O)n1cc([C@H]2C=C(C(=O)N3CCN(Cc4ccc5c(c4)OCO5)CC3)O[C@@H](OCc3ccc(CO)cc3)C2)c2ccccc21 | Trypanosoma cruzi | reporter mRNA translation, inhibitor, refers to: Renilla luciferase mRNA | cell-free extract | concentration not given, test 3 | baseline: positive over negative control | translation activity | 49.5%

Excerpt of the above:
Structure (SMILES) | tested on | assay | system | setting | scale | endpoint | value
Brc1ccccc1-c1nnc(CSc2nnnn2-c2ccccc2)o1 | HTR2A | ligand displacement, radioligand |  | 10 µM |  | inhibition | 5%
CCc1c(-c2ccc3[nH]ncc3c2)cnc(N)c1-c1ccc(O)cc1 | Ubiquitin carboxyl-terminal hydrolase 7 (USP7, Homo sapiens, UniProt Q93009) | enzyme activity, inhibitor |  | 50 µM |  | inhibition | 105% and 89.1%
O=C(CN1CCO[C@@H](COc2cccc(Cl)c2)C1)N1CCc2ccccc21 | HTR2A | radioligand binding |  | concentration not given, together with: [3H]ketanserin |  | inhibition | 62.8%
